{"data": "Measurements from different studies", "organism": "Mycobacterium tuberculosis", "note": "Protocols differ between the studies behind these lines."}
{"SMILES": "C#CCN(Cc1ccc2nc(N)nc(N)c2c1)c1ccc(C(=O)N[C@@H](CCC(=O)OCC)C(=O)OCC)cc1", "strain": "pptH knockout", "quantity": "MIC", "result": "< 0.1 µM"}
{"SMILES": "CCC1=NN2C(=N)C(=Cc3ccc(Sc4ccc(C)cc4)o3)C(=O)N=C2S1", "technique": "resazurin", "strain": "rel knockout", "time": "168 h", "setting": "nutrient-starved", "quantity": "IC50", "result": "16 µM"}
{"SMILES": "CNC1C(O)C(NC)C2OC3(O)C(OC(C)C[C@H]3NC(=O)Cc3cc(Cl)ccn3)OC2C1O.Cl.Cl (stereo partly drawn)", "strain": "H37Rv Rv1258c knockout", "medium": "7H9 broth", "time": "7 days", "quantity": "MIC", "result": "1.6 µg/mL"}
{"SMILES": "Cc1nc(=O)c2cc(CN(C)c3cccc(C(=O)N[C@@]4(C(=O)O)CCC[C@H](C(=O)O)C4)c3)ccc2[nH]1", "strain": "pptH knockout", "quantity": "MIC", "result": "27 µM"}
{"SMILES": "CC(C)c1cc(N)c2cc(NC(=O)C(=O)Nc3ccc4nc(C(C)C)cc(N)c4c3)ccc2n1", "technique": "resazurin", "strain": "rel knockout", "time": "168 h", "setting": "nutrient-starved", "quantity": "IC50", "result": "4 µM"}
{"SMILES": "CN[C@@H]1[C@H](O)[C@H](NC)[C@H]2O[C@]3(O)[C@H](O[C@@H]2[C@H]1O)O[C@H](C)C[C@H]3NC(=O)Cc1ccc(F)cn1", "quantity": "MIC", "result": "1.6 µg/mL"}
{"SMILES": "COC(=O)[C@@H](CCCNC(=O)OC(C)(C)C)NC(=O)c1ccc(NCc2ccc3nc(N)nc(N)c3c2Cl)cc1", "strain": "pptH knockout", "quantity": "MIC", "result": "< 0.1 µM"}
{"SMILES": "CN[C@@H]1[C@H](O)[C@H](NC)[C@H]2O[C@]3(O)[C@H](O[C@@H]2[C@H]1O)O[C@H](C)C[C@H]3NC(=O)CNC(C)(C)C", "quantity": "MIC", "result": "3.12 µg/mL"}
{"SMILES": "CNC1C(O)C(NC)C2OC3(O)C(OC(C)C[C@H]3NC(=O)Cc3ccc(F)cn3)OC2C1O.Cl.Cl (stereo partly drawn)", "strain": "H37Rv Rv1258c knockout", "medium": "7H9 broth", "time": "7 days", "quantity": "MIC", "result": "3.1 µg/mL"}
{"SMILES": "C#CCN(Cc1ccc2[nH]cnc(=O)c2c1)c1ccc(C(=O)N[C@@H](CCC(=O)O)C(=O)O)cc1", "strain": "pptH knockout", "quantity": "MIC", "result": "> 100 µM"}
{"SMILES": "C=CCNC(=O)N1Cc2ccc(NC(=O)NC3CC3c3ccccc3)cc2C1 (stereo not drawn)", "technique": "resazurin", "strain": "rel knockout", "time": "168 h", "setting": "nutrient-starved", "quantity": "IC50", "result": "> 64 µM"}
{"SMILES": "Br.Br.Br.CNC1C(O)C(NC)C2OC3(O)C(OC(C)C[C@H]3NC(=O)Cc3ccccn3)OC2C1O (stereo partly drawn)", "strain": "H37Rv Rv1258c knockout", "medium": "7H9 broth", "time": "7 days", "quantity": "MIC", "result": "3.1 µg/mL"}
{"note": "Excerpt of the above:"}
{"SMILES": "CCC1=NN2C(=N)C(=Cc3ccc(Sc4ccc(C)cc4)o3)C(=O)N=C2S1", "technique": "resazurin", "strain": "rel knockout", "time": "168 h", "setting": "nutrient-starved", "quantity": "IC50", "result": "16 µM"}
{"SMILES": "CNC1C(O)C(NC)C2OC3(O)C(OC(C)C[C@H]3NC(=O)Cc3cc(Cl)ccn3)OC2C1O.Cl.Cl (stereo partly drawn)", "strain": "H37Rv Rv1258c knockout", "medium": "7H9 broth", "time": "7 days", "quantity": "MIC", "result": "1.6 µg/mL"}
